Assay results gathered from unrelated publications.
Numbered parts are unrelated; each lists some results of a single study.
Sequence of UniProt P46098 (whole entry, looked up): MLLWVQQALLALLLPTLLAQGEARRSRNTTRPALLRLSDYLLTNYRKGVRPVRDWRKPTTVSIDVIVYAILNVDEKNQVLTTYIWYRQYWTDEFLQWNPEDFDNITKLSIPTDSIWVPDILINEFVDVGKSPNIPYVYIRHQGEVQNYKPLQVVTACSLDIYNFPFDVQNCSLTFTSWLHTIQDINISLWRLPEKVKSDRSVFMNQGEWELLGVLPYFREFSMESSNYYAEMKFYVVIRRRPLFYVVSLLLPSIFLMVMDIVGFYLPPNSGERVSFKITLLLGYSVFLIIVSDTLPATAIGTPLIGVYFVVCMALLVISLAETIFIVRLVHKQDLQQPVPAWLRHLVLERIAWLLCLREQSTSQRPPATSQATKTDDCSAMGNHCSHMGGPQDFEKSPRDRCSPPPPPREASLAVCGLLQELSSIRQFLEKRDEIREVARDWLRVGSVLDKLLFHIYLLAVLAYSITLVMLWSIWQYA
Sequence of UniProt P07550 (whole entry, looked up): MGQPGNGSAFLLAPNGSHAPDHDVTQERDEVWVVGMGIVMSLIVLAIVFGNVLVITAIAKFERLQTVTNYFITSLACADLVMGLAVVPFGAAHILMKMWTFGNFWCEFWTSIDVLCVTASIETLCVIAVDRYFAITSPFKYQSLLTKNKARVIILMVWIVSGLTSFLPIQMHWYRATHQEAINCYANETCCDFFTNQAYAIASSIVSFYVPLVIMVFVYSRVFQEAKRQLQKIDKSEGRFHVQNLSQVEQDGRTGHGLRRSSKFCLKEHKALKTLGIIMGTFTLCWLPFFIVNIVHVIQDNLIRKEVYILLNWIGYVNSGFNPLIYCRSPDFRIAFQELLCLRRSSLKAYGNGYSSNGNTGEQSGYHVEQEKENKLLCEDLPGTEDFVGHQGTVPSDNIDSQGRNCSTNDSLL
Sequence of UniProt P18825 (whole entry, looked up): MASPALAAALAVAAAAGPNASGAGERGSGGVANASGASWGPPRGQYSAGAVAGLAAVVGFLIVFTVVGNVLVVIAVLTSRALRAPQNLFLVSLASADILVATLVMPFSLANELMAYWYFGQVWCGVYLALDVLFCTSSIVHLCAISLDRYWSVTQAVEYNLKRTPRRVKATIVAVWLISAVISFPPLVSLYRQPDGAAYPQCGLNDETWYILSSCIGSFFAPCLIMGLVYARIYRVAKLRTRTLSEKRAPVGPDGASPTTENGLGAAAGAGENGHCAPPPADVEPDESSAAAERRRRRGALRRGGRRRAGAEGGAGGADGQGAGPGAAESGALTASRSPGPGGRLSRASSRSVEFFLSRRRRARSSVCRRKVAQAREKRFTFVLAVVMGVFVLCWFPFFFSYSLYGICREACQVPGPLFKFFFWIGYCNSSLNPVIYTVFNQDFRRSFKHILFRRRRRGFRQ
Sequence of UniProt Q9H3N8 (whole entry, looked up): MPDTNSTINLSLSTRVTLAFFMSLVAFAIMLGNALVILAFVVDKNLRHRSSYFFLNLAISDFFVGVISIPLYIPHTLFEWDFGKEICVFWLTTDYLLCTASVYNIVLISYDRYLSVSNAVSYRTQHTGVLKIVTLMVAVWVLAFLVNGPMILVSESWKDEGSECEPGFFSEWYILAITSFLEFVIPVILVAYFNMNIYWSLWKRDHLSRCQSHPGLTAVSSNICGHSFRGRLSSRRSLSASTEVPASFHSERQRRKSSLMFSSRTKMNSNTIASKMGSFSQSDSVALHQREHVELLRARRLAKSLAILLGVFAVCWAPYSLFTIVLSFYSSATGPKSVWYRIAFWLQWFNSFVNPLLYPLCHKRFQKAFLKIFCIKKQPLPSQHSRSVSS
Sequence of UniProt P50406 (whole entry, looked up): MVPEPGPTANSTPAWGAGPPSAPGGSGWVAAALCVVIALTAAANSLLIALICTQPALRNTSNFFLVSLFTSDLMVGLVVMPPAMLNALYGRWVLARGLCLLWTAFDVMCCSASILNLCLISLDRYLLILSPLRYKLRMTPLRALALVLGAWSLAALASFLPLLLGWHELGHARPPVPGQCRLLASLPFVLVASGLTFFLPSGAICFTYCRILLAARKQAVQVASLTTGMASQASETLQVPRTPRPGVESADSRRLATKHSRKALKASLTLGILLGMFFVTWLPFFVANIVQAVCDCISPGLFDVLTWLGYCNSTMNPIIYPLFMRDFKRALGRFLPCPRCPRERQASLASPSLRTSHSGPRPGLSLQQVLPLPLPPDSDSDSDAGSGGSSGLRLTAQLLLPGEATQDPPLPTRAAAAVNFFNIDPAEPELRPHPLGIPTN
Sequence of UniProt P21917 (whole entry, looked up): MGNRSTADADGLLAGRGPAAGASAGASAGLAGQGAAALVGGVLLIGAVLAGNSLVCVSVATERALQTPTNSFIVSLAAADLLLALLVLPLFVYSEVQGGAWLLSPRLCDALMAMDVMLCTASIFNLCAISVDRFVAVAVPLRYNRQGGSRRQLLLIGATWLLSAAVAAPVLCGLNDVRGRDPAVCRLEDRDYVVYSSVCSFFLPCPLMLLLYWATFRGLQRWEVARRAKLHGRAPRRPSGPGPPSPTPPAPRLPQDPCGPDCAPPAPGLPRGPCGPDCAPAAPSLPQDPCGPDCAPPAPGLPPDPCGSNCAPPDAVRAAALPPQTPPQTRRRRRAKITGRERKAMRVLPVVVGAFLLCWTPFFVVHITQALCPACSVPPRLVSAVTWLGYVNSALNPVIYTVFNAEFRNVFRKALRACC
Sequence of UniProt P34969 (whole entry, looked up): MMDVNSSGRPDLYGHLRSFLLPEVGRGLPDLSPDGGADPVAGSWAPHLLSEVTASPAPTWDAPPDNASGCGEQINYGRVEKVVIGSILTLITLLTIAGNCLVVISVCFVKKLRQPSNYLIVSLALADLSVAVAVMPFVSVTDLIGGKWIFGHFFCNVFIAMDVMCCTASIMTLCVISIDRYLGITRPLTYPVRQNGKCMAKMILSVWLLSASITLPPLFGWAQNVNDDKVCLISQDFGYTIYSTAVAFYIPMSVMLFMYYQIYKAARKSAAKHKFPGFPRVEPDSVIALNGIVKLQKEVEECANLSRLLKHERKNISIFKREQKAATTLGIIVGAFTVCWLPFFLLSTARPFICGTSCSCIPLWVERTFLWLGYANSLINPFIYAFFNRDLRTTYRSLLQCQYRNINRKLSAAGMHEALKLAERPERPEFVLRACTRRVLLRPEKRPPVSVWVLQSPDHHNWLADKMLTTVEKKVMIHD
Sequence of UniProt P25100 (whole entry, looked up): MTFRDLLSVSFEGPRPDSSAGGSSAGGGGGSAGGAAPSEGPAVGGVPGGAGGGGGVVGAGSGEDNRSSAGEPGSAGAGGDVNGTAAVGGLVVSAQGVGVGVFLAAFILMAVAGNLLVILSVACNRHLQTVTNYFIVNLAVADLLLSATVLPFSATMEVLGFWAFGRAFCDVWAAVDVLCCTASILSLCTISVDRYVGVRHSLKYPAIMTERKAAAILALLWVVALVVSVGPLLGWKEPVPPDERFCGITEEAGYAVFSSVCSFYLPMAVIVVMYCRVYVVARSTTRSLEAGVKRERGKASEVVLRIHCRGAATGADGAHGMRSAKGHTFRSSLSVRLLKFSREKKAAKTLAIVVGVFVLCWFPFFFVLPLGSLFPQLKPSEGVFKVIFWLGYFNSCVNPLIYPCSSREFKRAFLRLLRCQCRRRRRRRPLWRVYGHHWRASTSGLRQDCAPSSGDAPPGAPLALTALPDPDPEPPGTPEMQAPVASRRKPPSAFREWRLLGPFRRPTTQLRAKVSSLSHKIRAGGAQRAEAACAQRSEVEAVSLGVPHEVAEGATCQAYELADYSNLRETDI
Sequence of UniProt Q5BJF2 (whole entry, looked up): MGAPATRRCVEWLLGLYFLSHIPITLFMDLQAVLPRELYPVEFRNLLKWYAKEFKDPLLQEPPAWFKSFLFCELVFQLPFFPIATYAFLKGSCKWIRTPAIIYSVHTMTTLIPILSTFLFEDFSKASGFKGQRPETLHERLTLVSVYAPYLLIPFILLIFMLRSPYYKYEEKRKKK

Set 1
Target: Calcium/calmodulin-dependent protein kinase type II subunit alpha (CAMK2A, Homo sapiens, UniProt Q9UQM7)
Sequence of UniProt Q9UQM7 (whole entry, looked up): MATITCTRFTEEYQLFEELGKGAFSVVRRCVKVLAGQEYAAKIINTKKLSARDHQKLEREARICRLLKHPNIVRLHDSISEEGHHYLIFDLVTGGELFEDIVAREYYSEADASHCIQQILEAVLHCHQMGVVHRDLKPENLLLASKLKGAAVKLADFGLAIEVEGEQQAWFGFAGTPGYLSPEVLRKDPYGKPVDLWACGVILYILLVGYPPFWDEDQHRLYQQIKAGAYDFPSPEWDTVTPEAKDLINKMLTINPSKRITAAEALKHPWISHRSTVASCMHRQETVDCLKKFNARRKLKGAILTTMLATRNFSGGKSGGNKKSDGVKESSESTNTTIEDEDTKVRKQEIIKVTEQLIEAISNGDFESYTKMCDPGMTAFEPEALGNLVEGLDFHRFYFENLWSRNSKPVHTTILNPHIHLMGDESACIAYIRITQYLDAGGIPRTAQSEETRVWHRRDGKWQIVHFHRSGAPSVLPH
Effect on: enzyme activity
Action: inhibitor
Concentration: 10 µM
Measurement: inhibition
O=C(O)CCc1ccccc1O: -42%
COc1cc(C)c(/C=C/C(C)=C/C=C/C(C)=C/C(=O)O)c(C)c1C: -23%
Oc1ccc(C2CNCCc3c2cc(O)c(O)c3Cl)cc1 (stereo not drawn): 6%
OCCOCCN1CCN(C(c2ccccc2)c2ccc(Cl)cc2)CC1 (stereo not drawn): -3%
CCCCCCCC(=O)c1c(O)cc(O)cc1CC(=O)OCC: -17%
COc1cc(O)cc(O)c1C(=O)/C=C/c1ccccc1: -2%
CCCCCCCCCC(=O)OCCN1CCN(CCCN2c3ccccc3Sc3ccc(C(F)(F)F)cc32)CC1: -13%
CC[C@]1(O)C[C@@H]2CN(CCc3c([nH]c4ccccc34)[C@@](C(=O)OC)(c3cc4c(cc3OC)N(C)[C@H]3[C@@](O)(C(=O)OC)[C@H](OC(C)=O)[C@]5(CC)C=CCN6CC[C@]43[C@@H]65)C2)C1: -8%
CC1=C(C/C=C(\C)CCC[C@H](C)CCC[C@H](C)CCCC(C)C)C(=O)c2ccccc2C1=O: 0%
OC[C@H]1O[C@@H](c2ccc(Cl)c(Cc3ccc(O[C@H]4CCOC4)cc3)c2)[C@H](O)[C@@H](O)[C@@H]1O: 4%
Cc1cc(=O)c2c(O)c3c(O)cc(O)c4c5c(O)cc(O)c6c(O)c7c(=O)cc(C)cc7c(c65)c(c2c1)c34: 18%
CC(=O)N[C@H]1[C@H]([C@H](O)[C@H](O)CO)O[C@](O)(C(=O)O)C[C@@H]1O: -21%
CC1(C)CC(=O)CC(C)(C)N1: -18%
COc1cc2c(cc1OC)[C@@H]1Cc3ccc(OC)c(OC)c3C[N@@+]1([O-])CC2: 4%

Set 2
SMILES: Cc1cc2c(-c3ccco3)cnc(N[C@@H]3CCN(C)C[C@H]3C(=O)NC3CCCCC3)c2[nH]c1=O
Concentration: 10 µM
Measurement: inhibition
ADRA2C (Homo sapiens, UniProt P18825); ligand displacement: 8.58%
HTR3A (Homo sapiens, UniProt P46098); cell-free assay: 31.8%
CHRM2 (Homo sapiens, UniProt P08172); ligand displacement: 0.27%
DRD4 (Homo sapiens, UniProt P21917); ligand displacement: 97.9%
ADRA2A (Homo sapiens, UniProt P08913); ligand displacement: -3.97%
HRH4 (Homo sapiens, UniProt Q9H3N8); ligand displacement: 15.9%
ADRB2 (Homo sapiens, UniProt P07550); ligand displacement: 19.8%
ADRA1D (Homo sapiens, UniProt P25100); ligand displacement: 36.6%
TMEM97 (Homo sapiens, UniProt Q5BJF2); ligand displacement: 9.26%
HTR6 (Homo sapiens, UniProt P50406); ligand displacement: -37.4%
HTR7 (Homo sapiens, UniProt P34969); ligand displacement: -15.9%
HRH1 (Homo sapiens, UniProt P35367); ligand displacement: -0.72%
CHRM5 (Homo sapiens, UniProt P08912); ligand displacement: 16.3%
ADRA1B (Homo sapiens, UniProt P35368); ligand displacement: 11.8%

Set 3
Species: mouse
Matrix: microsomes or S9
Concentration: 2 µM
Time: 0.5 h
Measurement: remaining compound
Cc1nn(C)c(C)c1-c1cc(C(=O)NCCc2c[nH]c3ccccc23)[nH]n1: 54.5%
Cn1c(=O)c2c(nc(N3CCCCC3)n2CC/N=C2\CCCN2)n(C)c1=O: 89.2%
COc1cc(=O)n(C)cc1C(=O)NC1CCCC1: 73.9%
O=C(O)c1cn2c(n1)C(c1ccccc1)N(C(=O)c1ccccc1)CC2 (stereo not drawn): 31.7%
O=C(Nc1ccccc1OC1CCCC1)c1c(O)cc(=O)n2c1CCC2: 34.4%
Cn1c(Cc2ccccc2)c(-c2ccccc2)c(=O)n1C: 17.9%
CO[C@@H]1CCOC[C@H]1NS(=O)(=O)c1c(Cl)nc2sccn12: 18.7%
Cc1cc2cc(CN(Cc3cccs3)S(=O)(=O)c3ccc(F)cc3)c(=O)[nH]c2cc1C: 7.58%

Set 4
Target: Glycogen synthase kinase-3 alpha (GSK3A, Homo sapiens, UniProt P49840)
Sequence of UniProt P49840 (whole entry, looked up): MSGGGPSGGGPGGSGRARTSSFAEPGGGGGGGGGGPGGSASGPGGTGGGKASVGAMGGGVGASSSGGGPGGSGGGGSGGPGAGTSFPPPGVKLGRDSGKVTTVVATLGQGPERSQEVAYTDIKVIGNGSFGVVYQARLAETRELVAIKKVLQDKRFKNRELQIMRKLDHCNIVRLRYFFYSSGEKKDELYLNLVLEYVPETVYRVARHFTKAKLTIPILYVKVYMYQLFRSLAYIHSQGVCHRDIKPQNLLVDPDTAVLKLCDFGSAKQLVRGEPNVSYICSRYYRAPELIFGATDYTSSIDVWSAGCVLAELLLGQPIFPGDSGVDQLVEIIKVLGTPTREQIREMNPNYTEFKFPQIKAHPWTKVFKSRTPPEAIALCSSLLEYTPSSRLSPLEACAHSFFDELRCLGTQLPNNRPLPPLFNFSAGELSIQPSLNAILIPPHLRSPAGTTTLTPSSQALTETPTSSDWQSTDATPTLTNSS
Effect on: enzyme activity
Action: inhibitor
Concentration: 0.5 µM
Reference: control
Measurement: remaining activity
COc1cc(Nc2c(C#N)cnc3cc(OCCCN4CCN(C)CC4)c(OC)cc23)c(Cl)cc1Cl: 103%
CC[n+]1c(/C=C/N(C)c2ccccc2)n(-c2ccccc2)c2ccc(-c3nc4ccccc4s3)cc21: 103%
Cc1cncc2cccc(S(=O)(=O)N3CCCN(C(=O)CN)C[C@@H]3C)c12: 99.6%
N#CC(=C(N)Sc1ccc(N)cc1)c1ccccc1C(F)(F)F: 110%
Cc1ccc(NC2=CC(=O)c3sc(C)nc3C2=O)cc1: 102%
Cc1cc(Nc2nc(-c3ccccc3)nc3ccccc23)n[nH]1: 11.3%
CCCC(=O)Oc1ccc2[nH]c(C(=O)c3cc4ccccc4[nH]3)cc2c1: 94.1%
O=S(=O)(NCCNC/C=C/c1ccc(Br)cc1)c1cccc2cnccc12: 94.3%
CSc1nc(-c2ccnc(N[C@@H](C)c3ccccc3)c2)c(-c2ccc(F)cc2)[nH]1 (racemic): 94.1%
Nc1nc(Nc2ccc(S(N)(=O)=O)cc2)nn1C(=O)c1c(F)cccc1F: 9.59%
Fc1ccc(-c2nc3n(c2-c2ccncc2)CCS3)cc1: 116%
COc1ccc(S(=O)(=O)N(CCO)c2ccccc2CN(C)CC=Cc2ccc(Cl)cc2)cc1: 99.9%
Nc1nccc(-c2c(-c3ccc(F)cc3)ncn2C2CCNCC2)n1: 97.5%
Oc1ccc(Nc2nc(-c3ccc(Cl)cc3)cs2)cc1: 97.4%
CCc1[nH]c(-c2ccc(OC)cc2)nc1-c1ccncc1: 99.1%
CC(=O)c1ccc(N2CCOCC2)cc1O: 101%
NC(=O)c1ccc(N(C(N)=O)c2c(F)cccc2F)nc1-c1ccc(F)cc1F: 98.6%
CC#CC(=O)Nc1cc2c(Nc3ccc(F)c(Cl)c3)ncnc2cn1: 104%
O=C1NC(=O)C(c2c[nH]c3ccccc23)=C1c1c[nH]c2ccccc12: 27.7%
Nc1ncnc2c1cnn2-c1ccccc1: 90.3%
CC(C)(C)n1nc(Cc2cccc3ccccc23)c2c(N)ncnc21: 92.1%
